Measurements gathered from unrelated publications.
Each line is one published result; not all experiments were run side by side. “And” joins repeats or separate records; there may be more than shown. ± gives the spread as reported. Converted amounts (≈) assume the structure as drawn.

Structure (SMILES) | test | system | setting | how to read | measurement | result
CCC(CC)n1c(Cc2ccco2)nc2cc(C(=O)N[C@@H](CC(=O)O)c3ccccc3)ccc21 | – | male Sprague-Dawley rat, plasma | intravenous, 1 mg/kg | – | MRT(0-t) | 1.3 h
CCC1CNC(CC)CN(C(C(=O)[O-])c2ccc(C(=O)[O-])cc2)C(CC)CN(CC(=O)[O-])C(CC)CN1.[Mn+2] (centres unmarked) | ICP-MS | BALB/c mouse, lung | intravenous, 0.05 mmol/kg, 5 min, without anaesthesia | – | Mn content | 2.46 ± 0.34 µg/g
CN(C)C(=O)CNC(=O)c1ccc([C@H]2[C@@H](F)[C@@H](F)C[C@@H](F)[C@H]2F)cc1 | liver microsome stability | dog liver microsomes | 1 µM | – | hepatic clearance | 7.3 mL/min/kg
C/C(N)=N/C(=N\S(=O)(=O)c1ccc(C(F)(F)F)cc1)N1C[C@H](c2ccccc2)C(c2ccc(Cl)cc2)=N1 | – | dog | – | reference: in vivo over in vitro CLint | empirical scaling factor | 29
C=C1C[C@]2(C(=O)OC)C=C(C(=O)Nc3cccc(C(=O)Nc4ccc(Nc5nccc(-c6cccnc6)n5)c(C)c4)c3)C(=O)[C@H]1C2 | – | Wistar rat, male, plasma | 10 µM, 60 min | – | compound remaining | 0.75% and 0.5%
CCCC[C@H](NC(=O)CNC(=O)CNC(=O)[C@H](CCCCNC(=O)[C@H](CC(=O)O)NC(=O)C(C)c1ccc(CC(C)C)cc1)NC(=O)CN1CCN(CC(=O)O)CCN(CC(=O)O)CCN(CC(=O)O)CC1)C(=O)N[C@H]1CC(=O)NCCCC[C@@H](C(N)=O)NC(=O)[C@H](Cc2c[nH]c3ccccc23)NC(=O)[C@H](CCCNC(=N)N)NC(=O)[C@@H](Cc2ccccc2)NC(=O)[C@H](Cc2c[nH]cn2)NC1=O (some centres unmarked) [lutetium-177 labelled] | – | C57 mouse, urine | 2 h | – | urinary excretion | 75.4 ± 4.23%
COc1cccc(OC)c1-c1cc(C(=O)NC2(C(=O)O)C3CC4CC(C3)CC2C4)nn1-c1ccc(C(=O)NCCNC(=O)[C@H](CCCCNC(=O)[C@H](CC(C)C)NC(=O)C2OC2C(=O)O)NC(=O)CN2CCN(CC(=O)[O-])CCN(CC(=O)[O-])CCN(CC(=O)[O-])CC2)cc1C(C)C.[177Lu+3] (mixture of isomers) | – | mouse, HT-29 xenograft | 24 h post injection, biodistribution | reference: tumour over blood uptake | tumour-to-blood ratio | 11.2
CC(C)OC(=O)[C@H](CO)NCc1cc(Cl)c(OCc2cccc(-c3ccccc3)c2Br)cc1OCc1cccnc1 | – | hPD-L1 MC-38 tumour, humanised hPD-1 C57BL/6 mouse | oral, 5 mg/kg × 21, day 1, baseline | – | body weight | 19.7 ± 0.7 g
CC(C)=CCC1=C([O-])C(=O)c2ccccc2C1=O.CC(C)=CCC1=C([O-])C(=O)c2ccccc2C1=O.[Zn+2].c1ccc(-c2ccnc3c2ccc2c(-c4ccccc4)ccnc23)cc1 | cyclic voltammetry | CH2Cl2, Bu4NPF6 | 0.1 mM | reference: Ag/AgCl sat. KOH | Epc2 cathodic peak potential | -0.39 V
CC(C)C[C@H](NC(=O)[C@H](CCCN)NC(=O)CNC(=O)[C@@H](NC(=O)[C@H](C)NC(=O)[C@@H]1CSCSC[C@H](NC(=O)CC[C@H](N)C(=O)O)C(=O)N[C@@H](CC(N)=O)C(=O)N[C@@H]([C@@H](C)O)C(=O)N[C@@H](C)C(=O)N[C@@H]([C@@H](C)O)C(=O)N1)[C@@H](C)O)C(=O)N[C@@H](C)C(=O)N[C@@H](CCC(=O)O)C(=O)N[C@@](C)(Cc1ccccc1)C(=O)N[C@@H](CC(C)C)C(=O)N[C@H](C(=O)N[C@@H](CCCNC(=N)N)C(=O)N[C@@H](CO)C(=O)N[C@@H](CO)C(=O)N[C@@H](CC(N)=O)C(=O)N(C)[C@@H](CC(N)=O)C(=O)N[C@@H](Cc1ccccc1)C(=O)NCC(=O)N1CCC[C@H]1C(=O)N[C@@H](CCCCNC(=O)CC[C@H](NC(=O)CC[C@H](NC(=O)CCCCCCCCCCCCCCCCCCC(=O)O)C(=O)O)C(=O)O)C(=O)N[C@@H](CC(C)C)C(=O)N1CCC[C@H]1C(=O)N1CCC[C@H]1C(=O)N[C@H](C(=O)N[C@@H](CCC(=O)O)C(=O)N[C@H](C(=O)NCC(=O)N[C@@H](CO)C(=O)N[C@@H](CC(N)=O)C(=O)N[C@H](C(=O)N[C@@H](Cc1ccc(O)cc1)C(N)=O)[C@@H](C)O)C(C)C)[C@@H](C)O)C(C)C | – | human, plasma | subcutaneous, 12 mg, single dose, healthy volunteers | – | half-life | 348 h
CN(C)c1ccc(/C=C/c2cc(=O)cc(/C=C/c3ccc(N(C)C)cc3)o2)cc1 | – | acetonitrile | 298 K, added: excitation 377 nm | – | fluorescence lifetime | 0.21 ns
COc1cnc2cccc(N3CCc4c(cc(Cn5ccnc5)cc4-c4cn(C)nc4C(F)(F)F)C3=O)c2c1 | – | CD-1 mouse, male, plasma | intraperitoneal, 50 mg/kg | – | AUC extrapolated fraction | 0%
COCC1CN(C2CCN(c3cc(OC)c(Nc4ncc(Br)c(Nc5ccc6c(c5P(C)(C)=O)OCCO6)n4)cc3C)CC2)C1 | – | EGFR-mutant NSCLC patients, plasma | oral, 30 mg single dose, geometric mean | – | t1/2 | 28.9 h
CN(C(=O)C(C)(C)c1cc(C(F)(F)F)cc(C(F)(F)F)c1)c1cnc(N2C[C@H]3COCCN3C[C@H]2CO)cc1-c1ccc(F)cc1CO | – | pooled human liver microsomes | pH 7.4, substrate depletion | – | pathway contribution to clearance | 100%
CC(=O)Nc1ccc([C@H]2[C@@H](F)[C@@H](F)C[C@@H](F)[C@H]2F)cc1 | liver microsome stability | dog liver microsomes | 1 µM | – | hepatic clearance | 28 mL/min/kg
CC(C(=O)O)n1nc(Cn2cc3cc(OCC[18F])c(Cl)cc3n2)c2ccccc2c1=O (racemic) | – | rat, kidney | 2 h | – | tracer uptake | 0.25 %ID/g
C=CC(=O)Nc1cc(Nc2nccc(-c3c[nH]c4ccccc34)n2)c(OC)cc1N(C)CCN(C)C | storage stability | human dried blood spots | 5 h, -80 °C, medium QC level | – | recovery | 93.2%
CC(=O)N([O-])CCCCCNC(=O)CCC(=O)N([O-])CCCCCNC(=O)CCC(=O)N([O-])CCCCCN.[89Zr+4] | radio-TLC | aqueous buffer | 1 d, pH 7, 37 °C, 89Zr-labelled complex, added: DTPA 1000-fold excess | – | intact complex | 92.6 ± 0.6%
C#Cc1c(F)ccc2cc(O)cc(-c3ncc4c(N5CC6CCC(C5)N6C(=O)OC(C)OC(=O)c5ccc6ccccc6c5)nc(OC[C@@]56CCCN5C[C@H](F)C6)nc4c3F)c12 (some centres unmarked) | measured: prodrug | mouse whole blood | 1 µM | – | t1/2 | 0.198 h

Structure (SMILES) | test | system | setting | how to read | measurement | result
CCCc1cc2cc(-n3nc(CC)c4c3CC(C)(C)CC4=O)cc(N3CCC(O)CC3)c2c(=O)[nH]1 | – | – | pH 6.8 | – | aqueous solubility | 0.228 µM (≈ 0.109 µg/mL)
C=CC(=O)Nc1cc(Nc2nccc(-c3cn(C)c4ccccc34)n2)c(OC)cc1N(C)CCNC | storage stability | human plasma | 24 h, -80 °C, medium QC level | – | recovery | 100%
[123I]c1ccc2nc(-c3ccc(-n4ccnn4)nc3)cn2c1 | – | male Wistar rat, muscle | intravenous, 4 MBq, 14 h | – | tracer uptake | 0.003 %ID/g
O=C(Nc1ccc([C@H]2[C@@H](F)[C@@H](F)C[C@@H](F)[C@H]2F)cc1)C1CC1(F)F (some centres unmarked) | hepatocyte stability | cryopreserved rat hepatocytes | 1 µM | – | hepatic clearance | 20 mL/min/kg
O=C(CN1CN(c2ccc(Cl)c(Cl)c2)C2(CCN(C(=O)c3ccc4[nH]ncc4c3)CC2)C1=O)NCC(F)(F)F | – | mouse liver microsomes | – | – | CLint | 430 µL/min/mg protein
CC(C)(O)c1ncc([S@](N)(=O)=NC(=O)Nc2c3c(cc4c2CCC4)CCC3)s1 | measured: Psychiatric disorders | healthy human volunteers | oral, 10 mg once daily, 14 days, capsule formulation | – | subjects with adverse events | 17%
COc1cccc(OC)c1-c1cc(C(=O)NC2(C(=O)O)C3CC4CC(C3)CC2C4)nn1-c1ccc(C(=O)N(C)CCOCCN(C)C(=O)[C@H](CCCCNC(=O)[C@H](CC(C)C)NC(=O)C2OC2C(=O)O)NC(=O)CN2CCN(CC(=O)[O-])CCN(CC(=O)[O-])CCN(CC(=O)[O-])CC2)cc1C(C)C.[177Lu+3] (mixture of isomers) | – | mouse, HT-29 xenograft | 4 h post injection, biodistribution | reference: tumour over bone uptake | tumour-to-bone ratio | 10.7
N#CCNC(=O)c1ccc(C2CCCCC2)cc1 | liver microsome stability | mouse liver microsomes | 1 µM | – | hepatic clearance | 81 mL/min/kg
COc1cccc(OC)c1-c1cc(C(=O)NC2(C(=O)O)C3CC4CC(C3)CC2C4)nn1-c1ccc(C(=O)N(C)CCCN(C)CCCN(C)C(=O)[C@H](CCCCNC(=O)[C@H](CC(C)C)NC(=O)C2OC2C(=O)O)NC(=O)CN2CCN(CC(=O)[O-])CCN(CC(=O)[O-])CCN(CC(=O)[O-])CC2)cc1C(C)C.[177Lu+3] (mixture of isomers) | – | mouse, HT-29 xenograft | 24 h post injection, biodistribution | reference: tumour over bone uptake | tumour-to-bone ratio | 8.43
COc1ccc2c(c1)CN(C(=O)CCN1CCC(Cc3ccccc3)CC1)CC[S@@+]2[O-] | – | healthy male volunteers, plasma | intravenous, 0.6 mg/kg | – | unbound Cmax | 400 nM
O=C(c1ccc(C2CCCCC2)cc1)N1CCC(F)CC1 | liver microsome stability | cynomolgus liver microsomes | 1 µM | – | hepatic clearance | 41 mL/min/kg
O=C(N1CCCCC1)C12CC(c3ccccc3)(C1)C2(Br)Br | metabolic stability | human, liver microsomes | 2 µM, 40 min, pH 7.4 | – | compound remaining | 11%
CCN(CC)c1ccc2c(c1)O[B-]1(c3ccccc3)OC(=O)C(c3ccccc3)=N[N+]1=C2C(C)C (centres unmarked) | – | toluene | – | – | fluorescence lifetime | 2.22 ns
O=C(Nc1cnccc1-c1ccc([18F])nc1)c1ccnc(NC(=O)C2CC2)c1 | – | FVB/NJ mice, both sexes, liver | intravenous, 25 min, median, P-gp inhibitor pretreatment, added: tariquidar 15 mg/kg iv | – | SUV | 8.71
COc1ccc(CN2CCC(F)(F)C(COc3ccc(F)c(F)c3)C2)cc1F (centres unmarked) | equilibrium dialysis | human plasma | – | – | fu | < 0.0003
OC1(C(F)(F)F)CCN(c2nc(Nc3ccnc(C(F)(F)F)c3)nc(-c3cccc(C(F)(F)F)n3)n2)C1 (centres unmarked) | – | monkey, both sexes, plasma | oral, 1 mg/kg, day 14 | – | Cmax | 774 ± 276 ng/mL
COc1cccc(OC)c1-c1cc(C(=O)NC2(C(=O)O)C3CC4CC(C3)CC2C4)nn1-c1ccc(C(=O)N(C)CCCN(C)C(=O)[C@H](CCCCNC(=O)[C@H](CC(C)C)NC(=O)C2OC2C(=O)O)NC(=O)CN2CCN(CC(=O)[O-])CCN(CC(=O)[O-])CCN(CC(=O)[O-])CC2)cc1C(C)C.[177Lu+3] (mixture of isomers) | – | mouse, HT-29 xenograft | 4 h post injection, biodistribution | reference: tumour over kidney uptake | tumour-to-kidney ratio | 0.53
CS(=O)(=O)c1ccc(-c2ccc(C3CCCCC3)cc2)cn1 | liver microsome stability | cynomolgus liver microsomes | 1 µM | – | hepatic clearance | 36 mL/min/kg
[11CH3]N1CCC(NC(=O)c2cc(-c3c(O)cc(O)cc3Oc3ccc([N+](=O)[O-])cc3)on2)CC1 | – | Wistar rat, female, healthy, urine | intravenous, 10 min | – | tissue uptake | 2.7 ± 1 %ID

A few entries again:
Structure (SMILES) | test | system | setting | how to read | measurement | result
COc1cccc(OC)c1-c1cc(C(=O)NC2(C(=O)O)C3CC4CC(C3)CC2C4)nn1-c1ccc(C(=O)N(C)CCCN(C)C(=O)[C@H](CCCCNC(=O)[C@H](CC(C)C)NC(=O)C2OC2C(=O)O)NC(=O)CN2CCN(CC(=O)[O-])CCN(CC(=O)[O-])CCN(CC(=O)[O-])CC2)cc1C(C)C.[177Lu+3] (mixture of isomers) | – | mouse, HT-29 xenograft | 4 h post injection, biodistribution | reference: tumour over kidney uptake | tumour-to-kidney ratio | 0.53
CC(C(=O)O)n1nc(Cn2cc3cc(OCC[18F])c(Cl)cc3n2)c2ccccc2c1=O (racemic) | – | rat, kidney | 2 h | – | tracer uptake | 0.25 %ID/g
CCCC[C@H](NC(=O)CNC(=O)CNC(=O)[C@H](CCCCNC(=O)[C@H](CC(=O)O)NC(=O)C(C)c1ccc(CC(C)C)cc1)NC(=O)CN1CCN(CC(=O)O)CCN(CC(=O)O)CCN(CC(=O)O)CC1)C(=O)N[C@H]1CC(=O)NCCCC[C@@H](C(N)=O)NC(=O)[C@H](Cc2c[nH]c3ccccc23)NC(=O)[C@H](CCCNC(=N)N)NC(=O)[C@@H](Cc2ccccc2)NC(=O)[C@H](Cc2c[nH]cn2)NC1=O (some centres unmarked) [lutetium-177 labelled] | – | C57 mouse, urine | 2 h | – | urinary excretion | 75.4 ± 4.23%
COc1cccc(OC)c1-c1cc(C(=O)NC2(C(=O)O)C3CC4CC(C3)CC2C4)nn1-c1ccc(C(=O)N(C)CCOCCN(C)C(=O)[C@H](CCCCNC(=O)[C@H](CC(C)C)NC(=O)C2OC2C(=O)O)NC(=O)CN2CCN(CC(=O)[O-])CCN(CC(=O)[O-])CCN(CC(=O)[O-])CC2)cc1C(C)C.[177Lu+3] (mixture of isomers) | – | mouse, HT-29 xenograft | 4 h post injection, biodistribution | reference: tumour over bone uptake | tumour-to-bone ratio | 10.7
